Experimental data gathered from unrelated publications.
A part holds a random share of what one study measured.

Study 1
Target: Histone acetyltransferase KAT6A, both winged helices, GST fusion (KAT6A, Homo sapiens, UniProt Q92794, residues 1-181)
Technique: protein binding microarray
Molecule type: double-stranded DNA, one strand shown
Sample: in vitro
Concentration: not given
Notes: 8-mer, flanks averaged, mean of 2 arrays, mostly near background
Baseline: not given
Reading: higher = stronger binding
Construct (chain): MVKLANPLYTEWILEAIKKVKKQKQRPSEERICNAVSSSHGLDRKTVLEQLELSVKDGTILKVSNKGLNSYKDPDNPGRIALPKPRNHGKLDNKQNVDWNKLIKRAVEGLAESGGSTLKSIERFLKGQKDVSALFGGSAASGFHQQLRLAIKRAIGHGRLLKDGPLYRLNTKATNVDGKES
| Oligonucleotide | E-score |
| --- | --- |
| AACTGGCG | 0.0319 |
| ACCCAACG | -0.116 |
| GCGGGAGA | 0.205 |

Study 2
Target: Interferon regulatory factor 5, full length, phosphomimetic (IRF5, Homo sapiens, UniProt Q13568-2, residues 1-514, K96S/S451D/S453D/S456D/S462D)
Technique: protein-binding microarray
Molecule type: double-stranded DNA, one strand shown
Sample: in vitro
Concentration: 250 nM
Notes: 60-bp whole probe
With: salmon DNA 0.4 mg/ml
Baseline: random background probes
Reading: higher = stronger binding
| Oligonucleotide | log fluorescence [z-score] |
| --- | --- |
| GCCTAGCACTCACCTATCCAAGTTCCCACTGTGCTAGTCTTGATTCGCTTGACGCTGCTG | 0.0815 |
| GCCTAGCACAACGGTTTCGGGTTTCGGGACGTGCTAGTCTTGATTCGCTTGACGCTGCTG | 8.23 |
| GCCTAGCACTTAGGCCTGGGGTATCGGTTAGTGCTAGTCTTGATTCGCTTGACGCTGCTG | 1.92 |

Other studies, line by line
F2 mature alpha-thrombin: Prothrombin, mature alpha-thrombin (F2, Homo sapiens, UniProt P00734)
| Molecule | target | assay | system | conditions | how to read | endpoint | result |
| --- | --- | --- | --- | --- | --- | --- | --- |
| GGTTGGTGTGGTTGG (2'F-ANA at 2 3 7 12) | F2 mature alpha-thrombin | aptamer microarray, sandwich | DNA with 2'F-ANA, in vitro | 200 nM, whole 15-mer aptamer, many near background, with: Cy3 exosite-II aptamer, 400 nM | higher = stronger binding | mean fluorescence intensity | 1260 a.u. |
| PhoQ, residues 284 288 289 292 302 303 TVTVVA | PhoP, residues 12 14 15 18 19 GQAIL (Escherichia coli, UniProt P23836) | Sort-seq, item: YFP reporter | E. coli | PhoQ-PhoP variant library, with: 10 µM Mg2+ | baseline: high Mg2+ state, higher = stronger signaling | fold induction | 9.99 |
| GGTTGGTGTGGTTGG (2'F-ANA at 3 4 7 8 10 11 14 15) | F2 mature alpha-thrombin | aptamer microarray, sandwich | DNA with 2'F-ANA, in vitro | 200 nM, whole 15-mer aptamer, many near background, with: Cy3 exosite-II aptamer, 400 nM | higher = stronger binding | mean fluorescence intensity | 195 a.u. |

A few entries again (other studies, line by line):
| Molecule | target | assay | system | conditions | how to read | endpoint | result |
| --- | --- | --- | --- | --- | --- | --- | --- |
| GGTTGGTGTGGTTGG (2'F-ANA at 3 4 7 8 10 11 14 15) | F2 mature alpha-thrombin | aptamer microarray, sandwich | DNA with 2'F-ANA, in vitro | 200 nM, whole 15-mer aptamer, many near background, with: Cy3 exosite-II aptamer, 400 nM | higher = stronger binding | mean fluorescence intensity | 195 a.u. |
